Experimental data from different studies.
Each numbered part is a random draw from the data of one study; scales do not carry over between parts. Changes are numbered by the printed parent chain.

Study 1 — technique: DHFR PCA, deep sequencing; medium: yeast; added: (+)-ABA 4.8 µM; reference: wild-type fitted maximum; reading: higher = stronger binding; measurement: relative binding score
Target: ABI1, truncated, D143A, DHFR fusion (Arabidopsis thaliana)
Setting: methotrexate growth selection, single substitutions
Parent: PYL1, truncated, DHFR fusion (Arabidopsis thaliana); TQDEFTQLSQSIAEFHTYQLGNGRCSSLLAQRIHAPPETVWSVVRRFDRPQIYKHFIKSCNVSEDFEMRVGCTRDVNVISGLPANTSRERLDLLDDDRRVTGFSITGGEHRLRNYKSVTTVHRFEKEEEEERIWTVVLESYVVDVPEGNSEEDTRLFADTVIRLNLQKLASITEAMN
V161A: 10.1%
R24C: 47.3%
V142K: 23.7%
A13E: 75.2%
S171H: 79%
P146Y: 8.9%
S87L: 14.2%
K168E: 12.1%
V137W: 4.01%
T86P: -3.09%
G108Y: 1.63%
I162Y: -11.1%
E129P: 85.5%
G108S: -2.25%

Study 2 — technique: RNA Bind-n-Seq; molecule type: RNA; medium: in vitro; tested at: 365 nM; reference: no-protein control; reading: higher = stronger binding; measurement: RBNS enrichment (R)
Target: RNA binding protein fox-1 homolog 2, RRM domain, GST-SBP tag (RBFOX2, Homo sapiens, UniProt O43251-10, residues 100-194)
Setting: natural RNA segment, single round, ends assumed
Shared flanks, not repeated: GGGAGUUCUACAGUCCGACGAUC … UGGAAUUCUCGGGUGCCAA
Residues (chain): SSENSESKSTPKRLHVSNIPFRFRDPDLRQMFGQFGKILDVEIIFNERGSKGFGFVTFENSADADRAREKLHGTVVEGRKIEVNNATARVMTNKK
CUUAGUGUGCUCAACUACAGAGAUAGCCGCUGCUGAGUGAUGUAGAUUUUCUACUUGAAUAUUUUUAUGUUGUAGGAACCUCAGGAGGUCAGUGUUUACUGUUUUAUAUA: 0.551
AAAACAGAGAUAAACAUUAGAUGUCUAAAGGAGUUAGUAAUGAAAAGCCUAUCCUUAAAAAAUAAACCUGUUGAAAUGGGCUUUAAAGACAUCGAAAUAAUCACUUGUCA: 0.542
AGUGGUCUCAUGGCGUGUGGCACAACCCCCCUCCCCAGGGCUCAGCUUAAUGUGCCCUCUCCCCCCAACAACCUGCAGGUUCACAGCACCAGCCACACAGCGGUAGGGAU: 0.467
GAGGGUCAGGGAAGAAACCCACUCUUGCUCUACGAGGAGCAAGUGCCUGCCCCCUCCCAGCAGCCAGCCCUGCCAAAGUUGCAUUAUCUUUGGCCAAGGCUGGGCCUGAC: 1.33
CUUAGUAAGACUCUGGUUCACACCGUGAGUGUCGCGGUCAUUGAUGGGACCAGGGCAGUCACCAGUGCCGAAGAGCGGUCCCCUUCGUGGAUAUCUGCUUCCAUGACAGA: 0.341
UCUCCAUUUCUCUGCCAAGCCCAUUUACCCCCACCUCAUGCAUCCCAAGGCUCUACUGGGUCCCUGGACCUAACCCUGCUUUCAUCCUGGUGGCCUUAACUACAGUGGAG: 1.66
AACUACCAGUACAGAUAGCCCCCGCGGGGCGGAGAUUUCUACCUUCUGCACUUACUCCCCAUCAGAAGAUCGAGUUUUAUGCAUCACAGUUAACAUGUCAGCUGGCCCUC: 1.19
AUAAAAUGAAAUUUGUUUCUCAUGAUAUGAAUCUUGCAGGUAAGAUGUAGGGUUUAUUGAAAAUGUGUGGGUUAAAUGCUUUCAGGUACACCAAUUCUUUCUACUAAAUU: 0.455
CACCAUUGAUUUUUCCAAAAUGUGUUGGAGAUUUGGCUGGACAGGUUACCAUCAGAGUGGAUGUACCAUUGAGUUAAAAACAAGAUAGAAAAACUGCCAAGUUGUUUGGC: 0.523
CAGGCAGAUACUGCUGUAUUUAGACAUUUCUAUUUCAGUUCAUUAAAAACUGCAAAACCAAUCUGUAUCAUGUACCAAACUGACUUAAAAUAAAUCUACAUGUUUAUUGA: 0.368
GGGAAAUGGCCUUCCCGCCGGAGGCCAGCUAUCUGCCUGACAGGCUGUGACUCUUCUCUCAACCUUGGCCUUCUCCCCUCUUCUGAGCUAGUUGGUUGAAUUUUUUUUAA: 0.341
GUCUGUCUAAUACAUGCCAGAGAUUUUUUUUUCAAAAAGUGCUUUAUCCCUACAAUGUACUGACAGUUCUUACAGUUGAGAUUUGUUCUUUUCAGCUAUUGCUUGUGAAA: 0.711

Study 3 — target: CCNB1, cyclin fold, Cln2 fusion (human); technique: yeast growth competition, sequencing; medium: yeast; setting: strong parent motif; reference: not given; reading: higher = stronger binding; measurement: normalised enrichment score
Parent: PKMYT1 docking peptide (human); SFEPRNLLSLFED; partner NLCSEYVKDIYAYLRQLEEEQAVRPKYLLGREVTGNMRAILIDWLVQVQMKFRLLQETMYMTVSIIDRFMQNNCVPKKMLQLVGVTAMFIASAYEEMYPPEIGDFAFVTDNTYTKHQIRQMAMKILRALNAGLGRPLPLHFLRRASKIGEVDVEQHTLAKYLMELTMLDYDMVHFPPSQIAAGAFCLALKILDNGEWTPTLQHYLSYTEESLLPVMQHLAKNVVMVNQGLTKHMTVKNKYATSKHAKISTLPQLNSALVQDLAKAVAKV
SFAPRNLLSLFED [E3A]: 1.03
SFEPRNLLSLFAD [E12A]: 0.228
SFEPANALSLFED [R5A L7A]: -0.523
SFEPTNLLSLFED [R5T]: 0.771
SFEPRNDLSLFED [L7D]: -0.46
SIEPRNLLSLFED [F2I]: -0.617
SFEPRSLLSLFED [N6S]: 1.47
SFEPRDLLSLFED [N6D]: 1.12
SFEPRNLLFLFED [S9F]: 1.3
SFESRNLLSLFED [P4S]: -0.048
SWEPRNLLSLFED [F2W]: -0.804
SFEPDNLLSLFED [R5D]: 0.239
SFEYRNLLSLFED [P4Y]: 0.329

Further values, each from its own experiment
PhoQ, residues 284 288 289 292 302 303 AGGCYF
fold induction (PhoP, residues 12 14 15 18 19 NMSSL (Escherichia coli, UniProt P23836); Sort-seq, measured: YFP reporter; E. coli; PhoQ-PhoP variant library, added: 10 µM Mg2+; reference: high Mg2+ state, higher = stronger signaling): 3.37

Excerpt of the above (study 2):
AAAACAGAGAUAAACAUUAGAUGUCUAAAGGAGUUAGUAAUGAAAAGCCUAUCCUUAAAAAAUAAACCUGUUGAAAUGGGCUUUAAAGACAUCGAAAUAAUCACUUGUCA: 0.542
AGUGGUCUCAUGGCGUGUGGCACAACCCCCCUCCCCAGGGCUCAGCUUAAUGUGCCCUCUCCCCCCAACAACCUGCAGGUUCACAGCACCAGCCACACAGCGGUAGGGAU: 0.467
CUUAGUAAGACUCUGGUUCACACCGUGAGUGUCGCGGUCAUUGAUGGGACCAGGGCAGUCACCAGUGCCGAAGAGCGGUCCCCUUCGUGGAUAUCUGCUUCCAUGACAGA: 0.341
